Assay results collected from several papers.
Numbered parts are unrelated; each lists some results of a single study.

Block 1 — technique: protein binding microarray; molecule type: double-stranded DNA, one strand shown; sample: in vitro; concentration: not given; relative to: not given; reading: higher = stronger binding
Target: Histone acetyltransferase KAT6A, winged helix 1, GST fusion (KAT6A, Homo sapiens, UniProt Q92794, residues 1-85)
Setting: 8-mer, flanks averaged, mean of 2 arrays, mostly near background
Target sequence (chain): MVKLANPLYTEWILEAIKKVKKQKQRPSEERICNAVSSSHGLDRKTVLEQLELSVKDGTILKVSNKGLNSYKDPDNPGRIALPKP
`ATTCACAC` has an E-score of -0.214.
`AGACACGG` gave an E-score of 0.19.
The E-score of `CCCGAGTC` is reported as 0.0483.
With `AGCGGTAA` the E-score was 0.313.
With `GAAGTGAC` the E-score was 0.0376.
`AAGGACTG` has an E-score of -0.246.
With `GTGGCGCA` the E-score was 0.154.
With `GGGCGAGA` the E-score was -0.0393.
For `CCCGAGAA`, the E-score was -0.0358.
For `CCTCTATC`, the E-score was -0.278.
With `ACGGTAAC` the E-score was 0.271.
For `TCTGCACA`, the E-score was -0.169.
`CAGCGGTA` has an E-score of 0.283.
`CAGCCTAC` gave an E-score of -0.11.
The E-score of `GGGGGTTA` is reported as -0.0357.
With `CGAAAATC` the E-score was -0.18.
`CCATTCTA` gave an E-score of -0.201.
`TAGTGACA` gave an E-score of -0.106.

Block 2 — technique: aptamer microarray, sandwich; molecule type: DNA with 2'F-ANA; sample: in vitro; concentration: 200 nM; added: Cy3 exosite-II aptamer, 400 nM; reading: higher = stronger binding; strand: GGTTGGTGTGGTTGG
Target: Prothrombin, mature alpha-thrombin (F2, Homo sapiens, UniProt P00734)
Setting: whole 15-mer aptamer, many near background
Under “mean fluorescence intensity”, `2'F-ANA at 3 5 7 9 13 14 15` is recorded as 54.3 a.u.
`2'F-ANA at 7 8 9 10 11 12 13` — result for “mean fluorescence intensity”: 233 a.u.
`2'F-ANA at 1 3 4 5 6 7 11 14 15` — result for “mean fluorescence intensity”: 45.6 a.u.
For `2'F-ANA at 1 2 6 10 12 13 14 15`, “mean fluorescence intensity” read 48.5 a.u.
`2'F-ANA at 1 2 5 6 8 10 11 13` — result for “mean fluorescence intensity”: 51.4 a.u.
`2'F-ANA at 3 4 5 10 11 12 13 14` — result for “mean fluorescence intensity”: 48.8 a.u.
Under “mean fluorescence intensity”, `2'F-ANA at 1 6 7 8 11 13 14 15` is recorded as 58.4 a.u.
Under “mean fluorescence intensity”, `2'F-ANA at 2 3 7 10 11 12 13 14 15` is recorded as 255 a.u.
`2'F-ANA at 2 3 4 5 8 9 10 12 15`: “mean fluorescence intensity” 55.2 a.u.
`2'F-ANA at 2 3 4 6 7 11 12 15`: “mean fluorescence intensity” 595 a.u.
`2'F-ANA at 1 2 3 4 5 6 10 12 13 14` — result for “mean fluorescence intensity”: 45.4 a.u.
For `2'F-ANA at 3 4 5 8 9 10 12 14 15`, “mean fluorescence intensity” read 56.4 a.u.
Under “mean fluorescence intensity”, `2'F-ANA at 1 2 3 4 5 6 8 11 12` is recorded as 109 a.u.
`2'F-ANA at 1 2 3 10 11 12 13 14 15`: “mean fluorescence intensity” 55.3 a.u.
For `2'F-ANA at 4 5 7 10 11 13`, “mean fluorescence intensity” read 49.2 a.u.
`2'F-ANA at 1 4 6 7 8 13 14`: “mean fluorescence intensity” 52.2 a.u.
Under “mean fluorescence intensity”, `2'F-ANA at 3 5 9 10 12 13 14 15` is recorded as 52.4 a.u.

Block 3 — technique: RNA Bind-n-Seq; molecule type: RNA; sample: in vitro; concentration: 365 nM; relative to: no-protein control; reading: higher = stronger binding
Target: RNA binding protein fox-1 homolog 2, RRM domain, GST-SBP tag (RBFOX2, Homo sapiens, UniProt O43251-10, residues 100-194)
Setting: natural RNA segment, single round, ends assumed
Shared flanks, not repeated: GGGAGUUCUACAGUCCGACGAUC … UGGAAUUCUCGGGUGCCAA
Construct (chain): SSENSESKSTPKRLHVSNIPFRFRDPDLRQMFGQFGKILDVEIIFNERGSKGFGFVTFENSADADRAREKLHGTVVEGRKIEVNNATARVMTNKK
`GCUCCGGCCAGAAGCGCCGCUCCGGAAGCGUCCUGCCGCCUCUCGCUUUGCCAGCCUGGGAGCCGCGCGCAUGCGCGCUCUCUCUGCCCUUCUCACCUCUGCUUCACUCG` — result for “RBNS enrichment (R)”: 0.341.
`AACUUAGAAACCAAAGACUAACUCUCUAGGGGAUCCUGCUGCUUUGCUUUCCUUCCUCGCUACUUCCUAAAAAGCAACAAAAAAGUUUUUGUGAAUGCUGCAAGAUUGUU`: “RBNS enrichment (R)” 0.451.
`CGGUGCGGUCGGUGCAGCGUGGCCAAUGCGCGGCGCGCGCGGGGGACAGAGCAGGAGGCGGUCUGUCACCUCGGCCACUGCUGACCUGGGCUGGCCUCCCCCAGCCCUCC`: “RBNS enrichment (R)” 0.325.
`UGCUUGAUUCAAAACUGUGGAAACCAGAUCUGUUUAGUCUCCUGUUUGUAUGCGUUUGCUAAUGGUAGCUAAAUAACCAGUUUUUGUUGUAAAUGCACCAAUUCUGAAGG`: “RBNS enrichment (R)” 1.18.
Under “RBNS enrichment (R)”, `CUCCUGUUUUGCAACCAGGAUGAGGACCCCUCCAUCUCCGUGGAUUACUGAGGGGGGCUCUUGCUUUAUGCGAUGCUGCCUUAUUUCCUUUAGGGUACUGUCCUGGUCAA` is recorded as 0.3.
For `UUUAUUAUAUCUAAGCUCUGUAGCAGGAUUCAUGUCGUUCUUUGACAGUUCUUUCUCUUUCCUGUAUAUGCAAUAACAAGGUUUUAAAAAAAUAAUAAAGAAGUGAGACU`, “RBNS enrichment (R)” read 0.429.
For `CCCAAAGCAAUGGUCCCCAAGCACUGAUGAAAACUAAUAUGCAUUUCCCAAAGACCCACACUAUGUAUCAGGAGCCUGCACCAUGCCAUUUGAAUGACCCUCAGCAAUGU`, “RBNS enrichment (R)” read 1.26.
Under “RBNS enrichment (R)”, `AAAGUUGGCUGGACUGUUAUACUAUGAAUAUACUACGAAUUUGUAAACUAUCAUUAUAAAUUGAAGUGUAUAUGCUCAGUAUAUUGGCAUAUAUGUGUAAUUCCAGCACU` is recorded as 0.28.

Block 4 — technique: protein-binding microarray; molecule type: double-stranded DNA, one strand shown; sample: in vitro; concentration: 250 nM; setting: 60-bp whole probe; added: salmon DNA 0.4 mg/ml; relative to: random background probes; reading: higher = stronger binding; shared flanks, not repeated: GCCTAGCAC … GTCTTGATTCGCTTGACGCTGCTG
Target: Interferon regulatory factor 5, full length, phosphomimetic (IRF5, Homo sapiens, UniProt Q13568-2, residues 1-514, K96S/S451D/S453D/S456D/S462D)
For `ATAGGTATCGACTTTCGGTTAGTGCTA`, the log fluorescence was 10.3 z-score.
`TTCATTTTTTTTTTCATCATGTGCTAG` has a log fluorescence of 1.73 z-score.
With `GACGGACTGCTTTCCCTGACGTGCTAG` the log fluorescence was 0.0411 z-score.
For `TTACGTTTCCTTTCCCTTTAGTGCTAG`, the log fluorescence was 3.09 z-score.
For `TTAGGACTGGACTTTCTGTTAGTGCTA`, the log fluorescence was 3.62 z-score.
With `GACGATTTCAGTTACGAGACGTGCTAG` the log fluorescence was 1.59 z-score.
For `GACGATTCCAGTTTCGAGTCGTGCTAG`, the log fluorescence was 6.37 z-score.
With `TCATTTATGTACTCTCTCACTGTGCTA` the log fluorescence was 0.805 z-score.
For `CACAGAATCCCCTTCTACTCGTGCTAG`, the log fluorescence was -0.17 z-score.
For `TTAGGTATCGCTCTCGGTTAGTGCTAG`, the log fluorescence was 3 z-score.
For `CTAGGACTGCTTTTCCTTTAGTGCTAG`, the log fluorescence was -0.0329 z-score.
`TCATCTATCTTAAATAGGACTGTGCTA` has a log fluorescence of 0.606 z-score.
For `TTAGATATTAGTCTCGATTAGTGCTAG`, the log fluorescence was 1.46 z-score.
With `GAGGCAAGGAGGGAGAACAGGTGCTAG` the log fluorescence was -0.606 z-score.

Repeated from above (block 4):
For `ATAGGTATCGACTTTCGGTTAGTGCTA`, the log fluorescence was 10.3 z-score.
`TTCATTTTTTTTTTCATCATGTGCTAG` has a log fluorescence of 1.73 z-score.
With `GACGGACTGCTTTCCCTGACGTGCTAG` the log fluorescence was 0.0411 z-score.
For `TTACGTTTCCTTTCCCTTTAGTGCTAG`, the log fluorescence was 3.09 z-score.
For `TTAGGACTGGACTTTCTGTTAGTGCTA`, the log fluorescence was 3.62 z-score.
With `GACGATTTCAGTTACGAGACGTGCTAG` the log fluorescence was 1.59 z-score.
For `GACGATTCCAGTTTCGAGTCGTGCTAG`, the log fluorescence was 6.37 z-score.
With `TCATTTATGTACTCTCTCACTGTGCTA` the log fluorescence was 0.805 z-score.
For `CACAGAATCCCCTTCTACTCGTGCTAG`, the log fluorescence was -0.17 z-score.
